Measured values gathered from unrelated publications.
Parts stem from different laboratories: compare values within a part only.

Set 1 — technique: RNA Bind-n-Seq; molecule type: RNA; medium: in vitro; tested at: 20 nM; notes: 6-mer, flanks averaged, single round; added: 150 mM LiCl; baseline: input library; reading: higher = stronger binding; measurement: 6-mer enrichment (R)
Target: TAR DNA-binding protein 43, full length, His tag (TARDBP, Homo sapiens, UniProt Q13148, residues 1-414)
UGCCCG: 1.01
CGCCUA: 0.883
CAUGGG: 1.07
GCUCUU: 0.918
ACUGGU: 0.946
AUAUCC: 0.863
AGGAUU: 0.869

Set 2 — technique: RNA Bind-n-Seq; molecule type: RNA; medium: in vitro; tested at: 365 nM; baseline: no-protein control; reading: higher = stronger binding; measurement: RBNS enrichment (R)
Target: RNA binding protein fox-1 homolog 2, RRM domain, GST-SBP tag (RBFOX2, Homo sapiens, UniProt O43251-10, residues 100-194)
Notes: natural RNA segment, single round, ends assumed
Shared flanks, not repeated: GGGAGUUCUACAGUCCGACGAUC … UGGAAUUCUCGGGUGCCAA
Target sequence (chain): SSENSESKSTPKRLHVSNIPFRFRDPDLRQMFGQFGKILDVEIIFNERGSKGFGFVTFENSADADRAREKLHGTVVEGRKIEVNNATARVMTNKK
UGUAUUGCUCAGUAUUCACUUAGAAGGGUUUCUUUCUCUUUGGCCUAGUUUGUGAAGGGAUCUUCCUUUGGACUUUCUCUAAGUUGGGAGAAGAACAUUCUUUUCAAUGG: 0.265
CCAACAGAUAAAAGAAGGAACAUUGCAGAGCUAGCAGUCGUGGUAUGGGGGCGACUGGGGAGUCCUCAUUGAAUCCUCAUUUUAUACCCAAAACCCUGAAGCCAUUGGAG: 1.13
GCUAGGUGCCCCUUGGAUAGAUGGGUGGCCAAGCCCCCUGGCCUGAAGGCCCGUCUCUGCAUCUCUACAGUUCUCUUUGGUUUUCAUUUUUCAUUUGGCUUAGUUUAGGG: 0.744
GUCUUCUGGUAAAUGUGUGCAGGGUCAUCCUGUCUCCUGUACCUCCUGGGAAAGGGGCCGCUGCUGUCUGGUGCCCUGUGAGCUGUGAUUGAUUGCCUUUGGUCAGUAAU: 0.587
GGAAAGUAAGAACACUGAUGGUGAUUCCUCUGCAAAGAUGAUAAGAAAAAGAACCAAUAAAUCACACAAUCUUUAUGUGCUUUCUAUAUGUAUUUCUUAGUAGUGAUACC: 0.601
GGGGCUGCUGUGAGGAAAACCUGCCAUUGUGGCCCUGGAGAGUCACCAGCAGCUCUUGGGAAGGACUUGCUGGGAGGCUGAGAGAGGCUUUGGGCACAGCCUGCUGUCUU: 0.88
UAUCAAGUAGUUGUUUACAUUUGACAAAAUAGGAACUAUGCCGGCAGAGUCCAACCGAAAACCCCCUAGGUGAGAUAGGCAGUAACUGGGCCUGCUGUCUGCGCCUUUCG: 0.687

Set 3 — technique: protein binding microarray; molecule type: double-stranded DNA, one strand shown; medium: in vitro; tested at: not given; baseline: not given; reading: higher = stronger binding; measurement: E-score
Target: Histone acetyltransferase KAT6A, winged helix 1, GST fusion (KAT6A, Homo sapiens, UniProt Q92794, residues 1-85)
Notes: 8-mer, flanks averaged, mean of 2 arrays, mostly near background
Residues (chain): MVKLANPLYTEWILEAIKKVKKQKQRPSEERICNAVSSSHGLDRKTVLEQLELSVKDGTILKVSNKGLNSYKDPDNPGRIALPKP
TAGGACCA: -0.18
TCCGCCAA: 0.158
CGAGAATC: -0.0107
AGGTTATC: -0.101
TCACTGCA: -0.175
ATGAGAAT: -0.0268
CAGGGGAG: -0.00502
ACACCGTA: 0.307

Other studies, line by line
PhoQ, residues 284 288 289 292 302 303 SIHMAM  fold induction (PhoP, residues 12 14 15 18 19 SMASL (Escherichia coli, UniProt P23836); Sort-seq, refers to: YFP reporter; E. coli; PhoQ-PhoP variant library, added: 10 µM Mg2+; baseline: high Mg2+ state, higher = stronger signaling): 8.36

Repeated from above (set 3):
TAGGACCA: -0.18
ATGAGAAT: -0.0268
CGAGAATC: -0.0107
